Published values collected from several papers.
Compare with care: the assays were run in different laboratories.
Chain of UniProt Q8IZP9 (whole entry, looked up): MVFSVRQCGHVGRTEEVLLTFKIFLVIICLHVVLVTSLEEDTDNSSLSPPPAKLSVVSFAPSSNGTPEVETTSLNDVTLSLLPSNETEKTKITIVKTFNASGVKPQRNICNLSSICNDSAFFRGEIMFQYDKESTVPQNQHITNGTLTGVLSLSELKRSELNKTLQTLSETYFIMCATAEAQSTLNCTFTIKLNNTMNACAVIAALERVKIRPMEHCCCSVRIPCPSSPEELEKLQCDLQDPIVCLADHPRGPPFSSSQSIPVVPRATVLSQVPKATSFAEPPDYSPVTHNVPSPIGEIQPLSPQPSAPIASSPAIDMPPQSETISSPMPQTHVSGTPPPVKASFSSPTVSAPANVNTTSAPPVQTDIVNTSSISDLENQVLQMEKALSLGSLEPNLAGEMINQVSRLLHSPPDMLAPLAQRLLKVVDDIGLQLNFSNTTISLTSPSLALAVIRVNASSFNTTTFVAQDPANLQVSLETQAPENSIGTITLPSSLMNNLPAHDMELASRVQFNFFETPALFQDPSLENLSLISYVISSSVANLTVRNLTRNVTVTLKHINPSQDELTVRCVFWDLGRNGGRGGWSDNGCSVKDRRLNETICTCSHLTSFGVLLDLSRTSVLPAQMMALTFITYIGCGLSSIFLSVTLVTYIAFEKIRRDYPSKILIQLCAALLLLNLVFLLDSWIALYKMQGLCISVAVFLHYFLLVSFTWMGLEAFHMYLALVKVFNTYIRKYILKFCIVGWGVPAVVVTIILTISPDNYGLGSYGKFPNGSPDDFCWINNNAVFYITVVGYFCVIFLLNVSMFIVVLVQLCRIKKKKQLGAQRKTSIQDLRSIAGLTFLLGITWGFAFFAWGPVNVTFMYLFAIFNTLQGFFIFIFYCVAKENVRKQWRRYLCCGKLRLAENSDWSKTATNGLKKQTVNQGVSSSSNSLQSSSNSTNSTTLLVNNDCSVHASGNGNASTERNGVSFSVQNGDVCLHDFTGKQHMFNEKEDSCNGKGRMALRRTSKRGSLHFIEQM
Chain of UniProt O75365 (whole entry, looked up): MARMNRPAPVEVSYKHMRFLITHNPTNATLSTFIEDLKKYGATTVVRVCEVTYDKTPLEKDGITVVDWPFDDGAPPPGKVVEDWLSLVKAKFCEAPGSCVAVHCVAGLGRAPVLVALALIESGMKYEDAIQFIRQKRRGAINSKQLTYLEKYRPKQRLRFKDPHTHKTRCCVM

For `O=C(O)C[C@H](NC(=O)[C@H](CC(=O)O)NC(=O)[C@H](CC(=O)O)NC(=O)[C@H](CC(=O)O)NC(=O)[C@H](CC(=O)O)NC(=O)[C@H](CC(=O)O)NC(=O)[C@H](CC(=O)O)NC(=O)[C@H](CC(=O)O)NC(=O)[C@H](CC(=O)O)NC(=O)[C@H](CC(=O)O)NC(=O)[C@H](CC(=O)O)NC(=O)[C@H](CCCCNC(=O)c1ccc(C(=O)NCCOCCOB2BBBBBB3BBBB3B2)cc1)NC(=O)CN1CCN(CC(=O)O)CCN(CC(=O)O)CCN(CC(=O)O)CC1)C(=O)O` [gallium-67 labelled], the tissue uptake was 0.11 %ID/g (ddY male mice, large intestine; intravenous, 37 kBq, 1 h).
Under “patients with ALT increased”, `CC(=O)c1c(C)c2cnc(Nc3ccc(C4CCN(CCS(C)(=O)=O)CC4)cn3)nc2n(C2CCCC2)c1=O` is recorded as 1.2% (HR+/HER2- advanced breast cancer patients; oral, dose not given, grade 3/4,, sample A patients).
`O=C1c2c(O)c(=O)ccn2N([C@@H]2c3ccccc3SCc3c2ccc(F)c3F)[C@@H]2COCCN12` gave a trough concentration of 6.54 ng/mL (BALB/c mouse; subcutaneous, 1 mg/kg q12h).
`O=C(c1ccc(F)c(F)c1Nc1ccc(I)cc1F)N1CC(O)([C@@H]2CCCCN2)C1`: “onset day of chorioretinopathy DLT” 13 days (human; oral, 0.6 mg/kg).
`Cc1ccccc1CN1C(=O)c2ccccc2Sc2ccc(C(=O)NCCCN3CCOCC3)cc21` has a cytotoxicity efficacy of -14.1% (Vero-E6; CellTiter-Glo ATP; concentration not given, 72 h, retest 8-point duplicates; reference: DMSO 0%, hyamine -100%, more negative, more toxic).
`CC(=O)N1CCC(C(=O)N2CCN3C(=O)c4cc(-c5ccccc5)ccc4NC(=O)C3C2)CC1` (stereo not drawn): “revertants per plate” 25 (Salmonella typhimurium; TA1535; 158 µg/plate).
`CN1CC[C@@H](c2c(O)cc(O)c3c(=O)cc(-c4ccc(C(F)(F)F)cc4Cl)oc23)[C@@H]1CO` — result for “patients with adverse event”: 60% (refers to: Anorexia; AML; oral, 200 mg, intermittent dosing).
`COc1cc(Nc2ncc(F)c(Nc3ccc4c(n3)NC(=O)C(C)(C)O4)n2)cc(OC)c1OC` has an IC50 of over 10 µM (Protein tyrosine phosphatase type IVA 3 (PTP4A3, Homo sapiens, UniProt O75365); PRL-3).
`C[C@H]1CN(c2n[nH]c3nc(N[C@H]4CC[C@H](NS(=O)(=O)CCC(F)(F)F)CC4)ncc23)CCO1` has a relative abundance of 1.11 (Myosin-9 (MYH9, Homo sapiens, UniProt P35579); inhibitor, Kinobeads competition profiling; 0.8 µM; reference: vehicle).
Under “log2 fold change”, `Oc1ccc2c3c1O[C@H]1[C@@H](O)CC[C@@]4(O)[C@@H](C2)N(CC2CCC2)CC[C@]314` is recorded as 0.523 (ADGRG2 (Homo sapiens, UniProt Q8IZP9); β-arrestin recruitment, TANGO luminescence, refers to: GPR64; concentration not given; reference: basal luminescence).
For `COc1cc2c(Oc3ccc4[nH]c(C)cc4c3F)ccnc2cc1OCC1(N)CC1`, “grade 3 sinus tachycardia” read 0% (paediatric recurrent refractory sarcoma; 10 mg).
With `Cc1cc(OCC(O)CN2CCN(c3cccc(Cl)c3)CC2)ccc1Cl` (stereo not drawn) the cytotoxicity efficacy was 0% (Vero-E6; CellTiter-Glo ATP; concentration not given, 72 h, first round 5-point; reference: DMSO 0%, hyamine -100%, more negative, more toxic).
For `CO[C@H]1C[C@@H]2CC[C@@H](C)[C@@](O)(O2)C(=O)C(=O)N2CCCC[C@H]2C(=O)O[C@H]([C@H](C)C[C@@H]2CC[C@@H](OC(=O)NCCOCCOCCOCCOCCOCCOCCOCCOCCC(=O)N3CCc4cc(Cn5nc(-c6ccc7oc(N)nc7c6)c6c(N)ncnc65)ccc4C3)[C@H](OC)C2)C[C@@H](O)[C@H](C)/C=C(\C)[C@@H](O)[C@@H](OC)C(=O)[C@H](C)C[C@H](C)/C=C/C=C/C=C/1C`, “any TEAE incidence” read 100% (phase 1 dose escalation; advanced solid tumour patients; intravenous, 16 mg weekly, grade ≥3).
`Cc1ncccc1-c1nc2cc(C(=O)NCCCc3ccccc3)ccc2o1` has a cytotoxicity efficacy of 0% (Vero-E6; CellTiter-Glo ATP; concentration not given, 72 h, retest 8-point duplicates; reference: DMSO 0%, hyamine -100%, more negative, more toxic).
Under “kidney reverse transfer rate constant (ko)”, `N=C(N)NCCC[C@H](NC(=O)[C@@H](Cc1ccccc1)NC(=O)[C@H](Cc1c[nH]cn1)NC(=O)CCCc1ccccc1)C(=O)N[C@@H](Cc1c[nH]c2ccccc12)C(=O)NCC(=O)N[C@@H](CCCCNC(=O)CCCCCNC(=O)CN1CCN(CC(=O)O)CCN(CC(=O)O)CCN(CC(=O)O)CC1)C(N)=O` [actinium-225 labelled] is recorded as 0.0035 h⁻¹ (five-compartment model fit; SCID mice, A-375 and A-375/MC1R xenografts).

Repeated from above:
`CC(=O)N1CCC(C(=O)N2CCN3C(=O)c4cc(-c5ccccc5)ccc4NC(=O)C3C2)CC1` (stereo not drawn): “revertants per plate” 25 (Salmonella typhimurium; TA1535; 158 µg/plate).
